Assay results collected from several papers.
Each line is one published result; not all experiments were run side by side. ± marks the error that the study gave.
ACHE: Acetylcholinesterase (ACHE, Homo sapiens, UniProt P22303)
CPL: CPL (Toxoplasma gondii, UniProt Q6DMN0)
Aminopeptidase N: Aminopeptidase N (Neisseria meningitidis, UniProt Q9JYV4)

| SMILES | target | assay | test system | setting | how to read | measurement | value |
| --- | --- | --- | --- | --- | --- | --- | --- |
| C=CC1CN2CCC1CC2C(O)c1c(-c2ccc(N=Nc3ccccc3)cc2)cnc2ccc(OC)cc12 (centres unmarked) | Sodium channel protein type 5 subunit alpha (SCN5A, Homo sapiens, UniProt Q14524) | sodium current, whole-cell patch clamp | HEK-293T | 10 µM, together with: light 365 versus 480 nm | – | photoswitching efficacy | 33.1 ± 4.3% |
| Nc1nc2c([C@@H]3O[C@@H]4COP(=O)(O)O[C@H]5[C@@H](O)[C@H](n6cnc7c(=O)[nH]c(N)nc76)O[C@@H]5COP(=O)(O)O[C@H]4[C@H]3O)snc2c(=O)[nH]1 | Cyclic di-GMP phosphodiesterase RocR (rocR, Pseudomonas aeruginosa, UniProt Q9HX69) | cyclic dinucleotide hydrolysis, substrate, HPLC | – | – | – | product P1 share | 58% |
| CC(=O)NC(Cc1ccc(Br)c(Cl)c1)C(=O)N[C@@H](C)C(=O)N1CCC[C@H]1C(=O)N1CCC[C@H]1C(=O)N[C@@H](CCC(=O)O)C(=O)N[C@@H](Cc1c[nH]cn1)C(=O)N[C@@H](CO)C(=O)N[C@H](C(=O)N[C@@H](C)C(N)=O)[C@@H](C)OP(=O)(O)O (some centres unmarked) | Serine/threonine-protein kinase DCLK2 (DCLK2, Homo sapiens, UniProt Q8N568) | enzyme activity, inhibitor | – | 10 µM | – | inhibition | 0.48% |
| O=c1c(O)c(-c2cc(O)ccc2O)oc2cc(O)cc(O)c12 | ACHE | enzyme activity, inhibitor | – | 500 µg/mL | – | inhibition | 71.3 ± 2.57% |
| C=C(C)C(=O)Oc1ccc(C(C)(C)c2ccc(OC(=O)C(=C)C)cc2)cc1 | Androgen receptor (AR, Homo sapiens, UniProt P10275) | reporter gene, antagonist | CHO | together with: 0.1 nM R1881 | reference: R1881 alone | maximum inhibition | 89% |
| CCCCCn1c2ccccc2c2cc(C(=O)c3ccncc3)ccc21 | Cannabinoid receptor 1 (CNR1, Homo sapiens, UniProt P21554) | cAMP inhibition, agonist, BRET | HEK293 expressing CNR1 | together with: forskolin | reference: forskolin alone | Emax | 55.3% |
| CC[C@H](C)[C@H](NC(=O)[C@H](CC(N)=O)NC(=O)[C@H](CC(N)=O)NC(=O)[C@@H](N)CCCNC(N)=O)C(=O)N1C[C@@H](n2cc([C]34[CH]5[CH]6[CH]7[CH]3[Fe]6754389%10[CH]4[CH]3[CH]8[CH]9[CH]4%10)nn2)C[C@H]1C(=O)N[C@@H](Cc1csc2ccccc12)C(=O)N[C@@H](CO)C(N)=O (some centres unmarked) | Envelope glycoprotein gp160 (env, Human immunodeficiency virus type 1 group M subtype B, UniProt P35961) | ITC | – | pH 7.4, 25 °C | – | binding free energy | -9.8 ± 1.7 kcal/mol |
| CC12CC3CC(C)(C1)CC(NC(=O)Nc1ccc(C(=O)N4CCC[C@H](C(N)=O)C4)cc1F)(C3)C2 | Bifunctional epoxide hydrolase 2 (EPHX2, Homo sapiens, UniProt P34913) | – | – | – | – | lipophilic ligand efficiency | 7.49 |
| CC(C)(C)n1ccc(C(=O)N2CCN(c3nc4ccccc4s3)CC2)c1 | hh, C-terminal autoprocessing domain (Drosophila melanogaster, UniProt Q02936) | inhibitor | – | 0.8 µM | – | kmax | 0.0013 s⁻¹ |
| Cc1cc(O)cc(C)c1CC(N)C(=O)NC1CCNc2c(CN3CCCCC3)cc(Cc3ccccc3)cc21 (centres unmarked) | Delta-type opioid receptor (Oprd1, Rattus norvegicus, UniProt P33533) | GTPγS binding, agonist | C6 cells expressing DOR | – | reference: DPDPE at 10 µM | maximal stimulation | 31% |
| CC(C)CCN(CCCc1ccccc1)c1nc(C#N)nc(N2CCOCC2)n1 | CPL | enzyme activity, inhibitor | – | – | reference: human over Toxoplasma IC50 | selectivity ratio | 0.2 |
| NC(=O)Cc1cc(=O)oc2cc(NC(=O)[C@@H](N)CCc3ccc(O)cc3)ccc12 | Aminopeptidase N | enzyme activity, substrate | – | pH 7.5, 37 °C | – | Km | 47.4 ± 1.6 µM |
| CC[C@H](C)[C@H]1C(=O)O[C@H](C(C)C)C(=O)N(C)[C@@H]([C@@H](C)CC)C(=O)O[C@H](C(C)C)C(=O)N(C)[C@@H]([C@@H](C)CC)C(=O)O[C@H](C(C)C)C(=O)N1C | Heat shock protein HSP 90-beta (HSP90AB1, Homo sapiens, UniProt P08238) | binding, SPR | – | – | – | koff | 0.0322 s⁻¹ |
| CC(=O)N[C@H]1C(O)O[C@H](CO)[C@@H](O[C@@H]2O[C@H](CO)[C@H](O)[C@H](O)[C@H]2O)[C@@H]1O (some centres unmarked) | Galectin-3 (LGALS3, Homo sapiens, UniProt P17931) | binding, isothermal titration calorimetry | – | full-length protein | – | –TΔS | 6.6 kcal/mol |
| CC(C)P(=S)(NP(=S)(C(C)C)C(C)C)C(C)C | Alpha-amylase (Bacillus subtilis, UniProt P00691) | binding, Van't Hoff analysis | – | pH 6.8, 298–310 K | – | ΔS | 0.136 kJ/mol/K |
| CC(=O)/C(C#N)=C/c1cccc(C(N)=O)c1 | Genome polyprotein, 3C protease (Human enterovirus D68, UniProt Q68T42, C1641Y/I1565V/I1594T/R1603K/Y1579H) | ITC | enterovirus D68 | concentration not given, 25 °C, together with: DTT 10 mM | – | binding enthalpy | -2.51 kcal/mol |
| CCCCCCCCP(=O)(Oc1ccccc1)O[C@@H]1O[C@H](CO)[C@@H](O)[C@H](O)[C@H]1F (some centres unmarked) | Lysosomal acid glucosylceramidase (GBA1, Homo sapiens, UniProt P04062) | enzyme activity, irreversible inhibitor | – | pH 5.5, 37 °C, together with: 2,4-dinitrophenyl beta-D-glucopyranoside | – | inactivation rate constant | 18.6 min⁻¹ |
| S=C(NCc1ccccn1)NCc1ccccn1 | ACHE | enzyme activity, inhibitor | – | 250 µg/mL | – | inhibition | 59.2% |
| CCN(Cc1ccccc1)C(=O)CCc1nc(CN2CCN(C(=O)Cc3ccc(OC)c(OC)c3)CC2)no1 | Potassium voltage-gated channel subfamily KQT member 4 (KCNQ4, Homo sapiens, UniProt P56696) | potassium current, whole-cell patch clamp | CHO, stable | 10 nM | – | activation V1/2 | -19 ± 1.14 mV |
| NC(=O)Cc1cc(=O)oc2cc(NC(=O)[C@@H](N)CCc3ccccc3)ccc12 | Aminopeptidase N | enzyme activity, substrate | – | pH 7.5, 37 °C | – | Km | 100.8 ± 0.6 µM |
| CC[C@H](C)[C@@H]1NC(=O)[C@H](CC(N)=O)NC(=O)[C@@H]2CCCN2C(=O)[C@@H](NC(=O)[C@H](CC(N)=O)NC(=O)[C@@H](N)CCC(N)=O)COC(=O)[C@H](CCSC)NC(=O)[C@H](Cc2c[nH]c3ccccc23)NC(=O)[C@H](CCC(N)=O)NC(=O)CNC(=O)[C@H](Cc2ccccc2)N(C)C1=O | Fsr quorum sensing protein (Enterococcus faecalis, UniProt A0ACD6TCR9) | quorum sensing reporter, activator | – | – | reference: compound over tail-removed analog | EC50 ratio | 3 fold |
| CCCN(Cc1ccc(F)cc1)c1nc(C#N)nc(N2CCOCC2)n1 | CPL | enzyme activity, inhibitor | – | – | reference: human over Toxoplasma IC50 | selectivity ratio | 0.27 |
| CC(=O)NCC(=O)NCC(=O)N[C@@H](CCCCNP(=O)(O)O)C(=O)N[C@@H](CCCCN)C(=O)NCC(N)=O | Phospholysine phosphohistidine inorganic pyrophosphate phosphatase (LHPP, Homo sapiens, UniProt Q9H008) | enzyme activity | – | concentration not given, 90 min, pH 7.8, together with: substrate 100 µM | – | substrate hydrolysis | 29.8% |

Some of these lines once more:
| SMILES | target | assay | test system | setting | how to read | measurement | value |
| --- | --- | --- | --- | --- | --- | --- | --- |
| CCCCCn1c2ccccc2c2cc(C(=O)c3ccncc3)ccc21 | Cannabinoid receptor 1 (CNR1, Homo sapiens, UniProt P21554) | cAMP inhibition, agonist, BRET | HEK293 expressing CNR1 | together with: forskolin | reference: forskolin alone | Emax | 55.3% |
| CC12CC3CC(C)(C1)CC(NC(=O)Nc1ccc(C(=O)N4CCC[C@H](C(N)=O)C4)cc1F)(C3)C2 | Bifunctional epoxide hydrolase 2 (EPHX2, Homo sapiens, UniProt P34913) | – | – | – | – | lipophilic ligand efficiency | 7.49 |
| CC[C@H](C)[C@@H]1NC(=O)[C@H](CC(N)=O)NC(=O)[C@@H]2CCCN2C(=O)[C@@H](NC(=O)[C@H](CC(N)=O)NC(=O)[C@@H](N)CCC(N)=O)COC(=O)[C@H](CCSC)NC(=O)[C@H](Cc2c[nH]c3ccccc23)NC(=O)[C@H](CCC(N)=O)NC(=O)CNC(=O)[C@H](Cc2ccccc2)N(C)C1=O | Fsr quorum sensing protein (Enterococcus faecalis, UniProt A0ACD6TCR9) | quorum sensing reporter, activator | – | – | reference: compound over tail-removed analog | EC50 ratio | 3 fold |
| CC(=O)N[C@H]1C(O)O[C@H](CO)[C@@H](O[C@@H]2O[C@H](CO)[C@H](O)[C@H](O)[C@H]2O)[C@@H]1O (some centres unmarked) | Galectin-3 (LGALS3, Homo sapiens, UniProt P17931) | binding, isothermal titration calorimetry | – | full-length protein | – | –TΔS | 6.6 kcal/mol |
